Assay results gathered from unrelated publications.
Protocols differ between the studies behind these lines. ± marks the error that the study gave.
Faah: Fatty-acid amide hydrolase 1 (Faah, Rattus norvegicus, UniProt P97612)
UniProt P97612, sequence (whole entry, looked up): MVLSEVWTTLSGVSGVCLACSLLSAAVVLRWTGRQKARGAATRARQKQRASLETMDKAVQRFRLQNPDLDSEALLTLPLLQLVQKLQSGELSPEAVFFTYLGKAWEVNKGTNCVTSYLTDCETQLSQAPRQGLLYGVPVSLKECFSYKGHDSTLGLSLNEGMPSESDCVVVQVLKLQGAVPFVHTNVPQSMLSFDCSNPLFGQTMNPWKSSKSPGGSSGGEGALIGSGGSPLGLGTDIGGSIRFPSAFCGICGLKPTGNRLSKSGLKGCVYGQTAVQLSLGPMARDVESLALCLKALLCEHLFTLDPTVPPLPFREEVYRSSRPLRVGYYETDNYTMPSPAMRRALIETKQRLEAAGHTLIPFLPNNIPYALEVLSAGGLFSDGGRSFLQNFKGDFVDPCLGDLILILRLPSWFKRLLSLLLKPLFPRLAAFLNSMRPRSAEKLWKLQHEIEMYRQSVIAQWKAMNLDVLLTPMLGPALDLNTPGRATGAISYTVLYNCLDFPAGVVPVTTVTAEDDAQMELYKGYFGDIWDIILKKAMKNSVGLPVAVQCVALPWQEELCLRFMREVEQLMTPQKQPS
Proteasome component C5/PSMB5: Proteasome component C5/PSMB5 (Homo sapiens, UniProt P20618+P28074)
UniProt P20618, sequence (whole entry, looked up): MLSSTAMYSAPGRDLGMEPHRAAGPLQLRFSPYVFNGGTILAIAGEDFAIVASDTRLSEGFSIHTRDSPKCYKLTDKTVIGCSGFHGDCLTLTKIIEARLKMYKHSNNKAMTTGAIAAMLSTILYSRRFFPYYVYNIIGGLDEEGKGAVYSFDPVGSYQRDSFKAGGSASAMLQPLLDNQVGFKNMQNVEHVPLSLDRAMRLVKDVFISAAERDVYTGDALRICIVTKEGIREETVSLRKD
UniProt P28074, sequence (whole entry, looked up): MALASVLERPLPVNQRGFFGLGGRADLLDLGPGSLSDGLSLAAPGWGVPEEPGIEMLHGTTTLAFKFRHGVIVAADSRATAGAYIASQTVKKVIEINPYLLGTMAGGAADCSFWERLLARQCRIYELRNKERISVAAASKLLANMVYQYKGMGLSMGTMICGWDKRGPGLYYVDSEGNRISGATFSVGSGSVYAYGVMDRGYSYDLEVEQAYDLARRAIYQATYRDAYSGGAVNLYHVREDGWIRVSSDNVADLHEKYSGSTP
SLC6A2: Sodium-dependent noradrenaline transporter (SLC6A2, Homo sapiens, UniProt P23975)
UniProt P23975, sequence (whole entry, looked up): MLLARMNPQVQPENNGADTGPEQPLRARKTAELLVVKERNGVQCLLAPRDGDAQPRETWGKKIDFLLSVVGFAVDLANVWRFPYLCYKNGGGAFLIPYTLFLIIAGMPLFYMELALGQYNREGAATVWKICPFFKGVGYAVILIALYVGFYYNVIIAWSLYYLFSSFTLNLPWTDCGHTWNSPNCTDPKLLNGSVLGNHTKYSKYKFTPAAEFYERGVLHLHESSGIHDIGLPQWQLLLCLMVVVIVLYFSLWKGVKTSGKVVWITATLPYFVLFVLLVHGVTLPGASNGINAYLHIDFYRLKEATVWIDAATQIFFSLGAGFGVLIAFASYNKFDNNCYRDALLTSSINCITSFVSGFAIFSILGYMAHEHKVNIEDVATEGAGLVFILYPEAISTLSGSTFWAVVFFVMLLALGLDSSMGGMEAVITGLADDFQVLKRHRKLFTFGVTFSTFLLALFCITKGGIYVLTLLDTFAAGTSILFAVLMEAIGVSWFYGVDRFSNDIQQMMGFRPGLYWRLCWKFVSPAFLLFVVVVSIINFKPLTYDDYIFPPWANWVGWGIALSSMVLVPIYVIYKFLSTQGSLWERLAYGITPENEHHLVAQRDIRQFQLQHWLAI
GRPR: Gastrin-releasing peptide receptor (GRPR, Homo sapiens, UniProt P30550)
UniProt P30550, sequence (whole entry, looked up): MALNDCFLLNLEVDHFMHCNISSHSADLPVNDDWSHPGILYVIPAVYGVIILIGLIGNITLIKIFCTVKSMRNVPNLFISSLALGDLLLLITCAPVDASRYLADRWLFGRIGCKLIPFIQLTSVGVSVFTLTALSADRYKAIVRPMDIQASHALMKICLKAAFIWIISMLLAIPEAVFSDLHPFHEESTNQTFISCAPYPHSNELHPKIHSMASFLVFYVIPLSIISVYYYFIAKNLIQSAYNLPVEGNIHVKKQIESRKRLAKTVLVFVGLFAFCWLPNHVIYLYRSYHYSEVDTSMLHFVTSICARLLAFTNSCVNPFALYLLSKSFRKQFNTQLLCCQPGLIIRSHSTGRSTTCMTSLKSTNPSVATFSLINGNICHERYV
UniProt P00383, sequence (whole entry, looked up): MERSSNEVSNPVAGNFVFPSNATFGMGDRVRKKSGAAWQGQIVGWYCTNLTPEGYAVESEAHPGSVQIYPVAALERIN
UniProt P16389, sequence (whole entry, looked up): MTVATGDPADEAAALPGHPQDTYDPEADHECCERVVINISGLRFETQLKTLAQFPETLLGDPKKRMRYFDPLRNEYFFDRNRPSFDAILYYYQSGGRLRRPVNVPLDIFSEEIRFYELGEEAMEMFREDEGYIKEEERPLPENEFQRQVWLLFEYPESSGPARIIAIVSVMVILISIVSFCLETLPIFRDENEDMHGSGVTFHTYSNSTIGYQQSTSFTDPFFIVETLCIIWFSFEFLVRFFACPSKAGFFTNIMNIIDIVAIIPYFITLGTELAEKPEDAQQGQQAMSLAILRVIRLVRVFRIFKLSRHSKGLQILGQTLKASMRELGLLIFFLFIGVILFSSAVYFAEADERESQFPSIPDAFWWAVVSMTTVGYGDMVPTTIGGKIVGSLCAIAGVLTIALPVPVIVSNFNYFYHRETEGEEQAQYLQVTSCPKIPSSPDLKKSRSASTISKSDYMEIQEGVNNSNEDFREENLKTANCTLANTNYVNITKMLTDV
UniProt Q13936, sequence (whole entry, looked up): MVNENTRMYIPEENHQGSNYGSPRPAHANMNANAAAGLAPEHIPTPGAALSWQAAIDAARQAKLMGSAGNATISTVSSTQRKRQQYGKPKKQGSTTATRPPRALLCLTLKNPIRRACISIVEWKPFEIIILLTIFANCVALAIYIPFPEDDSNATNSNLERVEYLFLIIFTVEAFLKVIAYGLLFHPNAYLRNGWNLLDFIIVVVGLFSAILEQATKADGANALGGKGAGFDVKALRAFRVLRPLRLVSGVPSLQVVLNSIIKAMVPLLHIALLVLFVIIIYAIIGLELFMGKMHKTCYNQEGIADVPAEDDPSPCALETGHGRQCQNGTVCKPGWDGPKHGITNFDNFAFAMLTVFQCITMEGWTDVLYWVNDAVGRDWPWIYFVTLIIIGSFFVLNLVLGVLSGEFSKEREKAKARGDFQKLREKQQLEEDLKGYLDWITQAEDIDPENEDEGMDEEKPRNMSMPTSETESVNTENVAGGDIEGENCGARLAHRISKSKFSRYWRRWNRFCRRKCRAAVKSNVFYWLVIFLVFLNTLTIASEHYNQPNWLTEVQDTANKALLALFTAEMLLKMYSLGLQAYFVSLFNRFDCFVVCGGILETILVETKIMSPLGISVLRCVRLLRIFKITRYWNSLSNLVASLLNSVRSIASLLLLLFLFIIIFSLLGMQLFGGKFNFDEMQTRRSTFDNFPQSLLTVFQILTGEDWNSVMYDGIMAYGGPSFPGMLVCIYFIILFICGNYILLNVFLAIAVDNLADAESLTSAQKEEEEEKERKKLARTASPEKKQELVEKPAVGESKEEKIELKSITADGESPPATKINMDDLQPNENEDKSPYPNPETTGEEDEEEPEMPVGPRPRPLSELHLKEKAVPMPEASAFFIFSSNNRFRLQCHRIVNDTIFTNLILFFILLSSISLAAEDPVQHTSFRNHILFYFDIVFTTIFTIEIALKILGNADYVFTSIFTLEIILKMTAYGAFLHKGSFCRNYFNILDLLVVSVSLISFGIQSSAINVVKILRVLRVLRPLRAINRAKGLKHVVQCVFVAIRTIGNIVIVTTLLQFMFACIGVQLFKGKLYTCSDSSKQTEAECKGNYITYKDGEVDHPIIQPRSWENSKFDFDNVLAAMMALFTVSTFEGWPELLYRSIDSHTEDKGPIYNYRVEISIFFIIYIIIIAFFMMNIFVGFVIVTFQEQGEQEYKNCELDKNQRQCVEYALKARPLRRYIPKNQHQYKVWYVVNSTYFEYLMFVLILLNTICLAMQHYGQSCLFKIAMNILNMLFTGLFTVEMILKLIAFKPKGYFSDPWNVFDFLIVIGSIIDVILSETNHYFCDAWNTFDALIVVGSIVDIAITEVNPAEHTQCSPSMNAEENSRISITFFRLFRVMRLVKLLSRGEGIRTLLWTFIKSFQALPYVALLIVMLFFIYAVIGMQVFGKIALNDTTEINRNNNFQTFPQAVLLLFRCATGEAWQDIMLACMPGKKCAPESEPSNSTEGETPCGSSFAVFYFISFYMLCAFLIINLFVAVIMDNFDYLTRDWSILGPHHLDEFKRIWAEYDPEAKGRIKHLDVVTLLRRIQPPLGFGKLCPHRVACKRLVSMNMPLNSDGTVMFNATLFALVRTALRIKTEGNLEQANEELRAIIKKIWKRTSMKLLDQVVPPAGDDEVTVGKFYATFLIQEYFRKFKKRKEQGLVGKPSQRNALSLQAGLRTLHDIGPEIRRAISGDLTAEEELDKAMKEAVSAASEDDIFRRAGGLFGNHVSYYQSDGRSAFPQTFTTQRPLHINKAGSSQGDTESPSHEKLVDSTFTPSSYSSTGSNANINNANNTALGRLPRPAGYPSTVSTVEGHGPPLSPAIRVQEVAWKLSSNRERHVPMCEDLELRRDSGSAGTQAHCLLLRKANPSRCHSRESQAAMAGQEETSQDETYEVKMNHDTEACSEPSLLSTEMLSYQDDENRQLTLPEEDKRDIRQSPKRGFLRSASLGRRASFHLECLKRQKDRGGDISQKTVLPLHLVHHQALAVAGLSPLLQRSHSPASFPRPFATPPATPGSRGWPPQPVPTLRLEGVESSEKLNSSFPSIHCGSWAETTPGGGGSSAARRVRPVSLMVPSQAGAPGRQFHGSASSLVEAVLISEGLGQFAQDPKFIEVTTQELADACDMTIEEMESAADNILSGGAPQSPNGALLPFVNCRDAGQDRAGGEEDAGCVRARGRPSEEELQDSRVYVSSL

Structure (SMILES) | target | test | system | conditions | IC50 [nM]
Cc1nc(N)ccc1-c1cc(Cl)cc(C(F)(F)F)c1 | STUB1 (Homo sapiens, UniProt Q9UNE7) | ubiquitylation, inhibitor, reconstituted ubiquitylation, refers to: tau and proteasome ubiquitylation | – | – | ~85000
CCOc1c(C(C)(C)O)sc2cnc(Nc3ccc(N4CCC(N5CC6(COC6)C5)CC4)cc3OC)nc12 | CACNA1C (Homo sapiens, UniProt Q13936) | ion current, inhibitor, patch clamp | – | – | > 30000
O=C(OC(C(F)(F)F)C(F)(F)F)N1CCC(Cn2ccc3cc(F)ccc32)CC1 | MGLL (Homo sapiens, UniProt Q99685) | enzyme activity, inhibitor | – | – | 830
O=C(N[C@@H](CC1CCCCC1)C(=O)N[C@@H](C[C@H]1CCNC1=O)C(=O)C(=O)NC1CC1)OCc1ccccc1 | Genome polyprotein, 3C protease (rhinovirus B14, UniProt P03303) | 3C protease activity, inhibitor, FRET | – | – | 20 ± 80
O=C(Nc1ccn(Cc2ccc(O)cc2C(F)(F)F)n1)c1c(F)cccc1F | Calcium release-activated calcium channel protein 1, with STIM1 (ORAI1, Homo sapiens, UniProt Q96D31) | STIM1-mediated current, inhibitor, whole-cell patch clamp | HEK293 cells | estimated from single concentrations | ~4100
C[C@@H](NC(=O)CCCCCNC(=O)c1ccc(-c2ccnc(N)n2)s1)C(=O)NCCCCCC(=O)N[C@H](CCCNC(=N)N)C(=O)N[C@H](CCCNC(=N)N)C(=O)N[C@H](CCCNC(=N)N)C(=O)N[C@H](CCCNC(=N)N)C(=O)N[C@H](CCCNC(=N)N)C(=O)N[C@H](CCCNC(=N)N)C(=O)N[C@H](CCCCN)C(N)=O | cGMP-dependent protein kinase 1, isoform alpha (PRKG1, Bos taurus, UniProt P00516) | inhibitor, fluorescence intensity displacement | – | added: ARC-1059 probe and cGMP 40 µM | 64.6
CCCCCCCCCCCCCC(=S)NCCCC[C@H](NC(=O)CNC(=O)CN)C(=O)NCC(=O)O | SIRT1 (Homo sapiens, UniProt Q96EB6) | – | – | – | 58900
CC[C@H](C)[C@H](NC(=O)[C@H](Cc1ccccc1)NC(=O)[C@H](CC(=O)O)NC(=O)[C@H](CCCNC(=N)N)NC(=O)[C@H](C)NC(=O)[C@H](C)NC(=O)[C@H](CC(C)C)NC(=O)[C@H](CC(N)=O)NC(=O)[C@H](CC(=O)O)NC(=O)[C@H](CC(C)C)NC(=O)[C@@H](NC(=O)[C@@H](NC(=O)[C@H](CC(N)=O)NC(=O)[C@H](CCSC)NC(=O)[C@H](CCC(=O)O)NC(=O)[C@H](CC(=O)O)NC(=O)[C@H](CO)NC(=O)[C@H](Cc1ccccc1)NC(=O)[C@H](CO)NC(=O)[C@H](C)NC(=O)[C@H](CC(=O)O)NC(=O)[C@H](C)NC(=O)[C@@H](N)Cc1c[nH]cn1)[C@@H](C)O)[C@@H](C)CC)C(=O)N[C@@H](CC(N)=O)C(=O)N[C@@H](Cc1c[nH]c2ccccc12)C(=O)N[C@@H](CC(C)C)C(=O)N[C@H](C(=O)N[C@@H](CCC(N)=O)C(=O)N[C@H](C(=O)N[C@@H](CCCCN)C(=O)N[C@H](C(=O)N[C@H](C(=O)N[C@@H](CC(=O)O)C(N)=O)[C@@H](C)O)[C@@H](C)CC)[C@@H](C)O)[C@@H](C)CC | GLP2R (Homo sapiens, UniProt O95838) | – | – | – | 28
O=C(OC(C(F)(F)F)C(F)(F)F)N1CCC(CCn2cc3ccccc3n2)CC1 | Faah | enzyme activity, inhibitor | – | – | > 10000
O=C(Nc1ccc(C(=O)Nc2ccc(C(=O)Nc3ccc(S(=O)(=O)O)c4cc(S(=O)(=O)O)cc(S(=O)(=O)O)c34)cc2)cc1)Nc1ccc(C(=O)Nc2ccc(C(=O)Nc3ccc(S(=O)(=O)O)c4cc(S(=O)(=O)O)cc(S(=O)(=O)O)c34)cc2)cc1 | Myeloblastin (Homo sapiens, UniProt P24158) | enzyme activity, inhibitor, absorbance | – | pH 7.4 | 34200
Cc1ccc(CNC(=O)[C@H](CCc2ccccc2)NC(=O)[C@@H](N)CCc2ccccc2)cc1 | Proteasome component C5/PSMB5 | β5 activity, inhibitor | – | added: Suc-LLVY-AMC, PA28α-activated | 489
O=C(NCc1nc(-c2ccc(Br)cc2)c[nH]1)Nc1ncc(Sc2ccccn2)s1 | Enoyl-(Acyl-carrier-protein) reductase (Streptococcus pneumoniae, UniProt Q9FBC5) | enzyme activity, inhibitor | – | – | 67
O=C(NCCN1CCC(Cc2ccccc2)CC1)c1ccc2cc(Br)ccc2c1 | SLC6A2 | transporter uptake, inhibitor, radiometric | – | – | 20 to 190
COc1ccc(C(=O)/C=C(\O)C(F)(F)C(F)(F)F)c(O)c1 | Formate-nitrite transporter (FNT, Plasmodium malariae, UniProt A0A1C3KYI2) | – | – | – | 150 ± 10
CC(C)c1ccc(CN2CCN(CC(=O)c3ccc4[nH]c(=O)[nH]c4c3)CC2)cc1 | DNA dC->dU-editing enzyme APOBEC-3B (Homo sapiens, UniProt Q9UH17) | enzyme activity, inhibitor | – | pH 5.5 | 40000
CNC(=O)c1cc(C)ccc1NC(=O)c1ccc(-c2cc(O)ccc2C)c(C)c1 | EPHA5 (Homo sapiens, UniProt P54756) | target engagement in cells, BRET | – | – | 335
O=C(O)c1ccc2nc(-c3ccc(OCCCCCCCCOc4ccc(-c5nc6ccc(C(=O)O)cc6[nH]5)cc4)cc3)[nH]c2c1 | Dihydrofolate reductase type 2 (Escherichia coli, UniProt P00383) | enzyme activity, inhibitor | – | pH 7 | 70000 ± 30000

Structure (SMILES) | target | test | system | conditions | IC50 [nM]
O=C(Nc1ccc(C(F)(F)F)nc1)N1CCC(Cc2cccc(Oc3ccc(C(F)(F)F)cn3)c2)CC1 | Faah | enzyme activity, inhibitor | – | with preincubation | > 10000
CC[C@H](C)[C@H](NC(=O)CNC(=O)[C@H](CC(=O)O)NC(=O)[C@H](CO)NC(=O)C=Cc1c[nH]cn1)C(=O)N[C@@H](Cc1ccccc1)C(=O)N[C@H](C(=O)N[C@@H](CC(=O)O)C(=O)N[C@@H](CO)C(=O)N[C@@H](Cc1ccc(O)cc1)C(=O)N[C@@H](CO)C(=O)N[C@@H](CCCNC(=N)N)C(=O)N[C@@H](Cc1ccc(O)cc1)C(=O)N[C@@H](CCCNC(=N)N)C(=O)N[C@@H](CCCCN)C(=O)N[C@@H](CCC(N)=O)C(=O)N[C@@H](CCSC)C(=O)N[C@@H](C)C(=O)N[C@H](C(=O)N[C@@H](CCCCN)C(=O)N[C@@H](CCCCN)C(=O)N[C@@H](C)C(=O)N[C@@H](CC(C)C)C(=O)N[C@@H](C)C(=O)N[C@@H](C)C(=O)N[C@H](C(=O)N[C@@H](CC(C)C)C(=O)NCC(=O)N[C@@H](CCCCN)C(=O)N[C@@H](CCCNC(=N)N)C(=O)N[C@@H](Cc1ccc(O)cc1)C(=O)N[C@@H](CCCCN)C(=O)N[C@@H](CCC(N)=O)C(=O)N[C@@H](CCCNC(=N)N)C(=O)N[C@H](C(=O)N[C@@H](CCCCN)C(=O)N[C@@H](CC(N)=O)C(=O)N[C@@H](CCCCN)C(N)=O)C(C)C)C(C)C)C(C)C)[C@@H](C)O | VIPR1 (Homo sapiens, UniProt P32241) | ligand displacement, radioligand | – | – | 37.2
CC(C)NC(=O)[C@H](CCc1ccccc1)NC(=O)[C@H](CC(=O)NCC(C)(C)C)NC(=O)CCc1ccccc1 | Proteasome component C5/PSMB5 | inhibitor | – | – | 11
O=C(/C=C/c1ccc(O)c2oc(-c3ccc(O)c(O)c3)cc12)O[C@H](Cc1ccc(O)c(O)c1)C(=O)O | GPR35 (Homo sapiens, UniProt Q9HC97) | DMR desensitization | HT-29 | no detergent, added: zaprinast | 2030
N=C(N)NCCCC(N)C(=O)NCC(=O)NC(CCCCNC(=N)NCCSCC1OC(n2cnc3c(N)ncnc32)C(O)C1O)C(N)=O (stereo not drawn) | SETD7 (Homo sapiens, UniProt Q8WTS6) | enzyme activity, inhibitor, fluorescence | – | – | ~100000
O=C(N[C@@H](Cc1coc2ccccc12)B(O)O)[C@@H]1C[C@H]2CC[C@@H]1O2 | Proteasome component C5/PSMB5 | enzyme activity, inhibitor, fluorescence | – | with preincubation | 2520
C[C@H](OP(=O)(O)O)[C@H]1NC(=O)[C@@H](CCCNC(=N)N)NC(=O)[C@H](CCCNC(=N)N)NC(=O)[C@@H](CCCNC(=N)N)NC(=O)[C@H](CCCNC(=N)N)NC(=O)[C@H](Cc2ccc3ccccc3c2)NC(=O)[C@@H]2CCCCN2C1=O | PIN1 (Homo sapiens, UniProt Q13526) | fluorescence anisotropy competition | – | added: FITC-labelled probe | > 10000
CC(C)[C@H](NC(=O)[C@H](C)NC(=O)[C@H](Cc1c[nH]c2ccccc12)NC(=O)[C@H](Cc1c[nH]cn1)NC(=O)[C@H](N)Cc1ccc(O)cc1)C(=O)N[C@H](C)C(=O)N[C@@H](Cc1c[nH]cn1)C(=O)N1CCC[C@@H]1CN[C@@H](Cc1ccccc1)C(N)=O | GRPR | inositol phosphate generation, antagonist | HuTu80 | added: GRP | 158 ± 14
O=C(O)c1cc2cc(O)ccc2n1Cc1ccc(Cl)c(C(F)(F)F)c1 | ABCC4 (Homo sapiens, UniProt O15439) | transporter uptake, inhibitor | HEK293 | cell membranes | 12300
CN(C)CCN(Cc1ccncc1)Cc1c(Cl)cccc1Cl | SLC6A2 | transporter uptake, inhibitor, radiometric | – | – | 635
O=C(CNc1nc(Cl)nc(NNC(=O)c2ccc(Nc3nc(Nc4ccc(C(=O)NNc5nc(Cl)nc(NCC(=O)NO)n5)cc4)nc(Nc4ccc(C(=O)NNc5nc(Cl)nc(NCC(=O)NO)n5)cc4)n3)cc2)n1)NO | MMP9 (Homo sapiens, UniProt P14780) | enzyme activity, inhibitor, absorbance | – | – | 243
O=c1c(-c2ccccc2)coc2cc(O)c(O)cc12 | PCO4 (Arabidopsis thaliana, UniProt Q9SJI9) | enzyme activity, inhibitor, RapidFire Q-TOF MS | – | added: RAP2 peptide substrate | 349600 ± 1200
Cn1nnnc1Sc1c2c(c(C#N)c3nc4ccccc4n13)CCCC2 | ERO1-like protein alpha (Homo sapiens, UniProt Q96HE7) | enzyme activity, inhibitor, fluorescence | – | – | 5200
Cc1cc(N2CCC(CO)(C3CC3)C2=O)cc(C(=O)NCc2cc(F)cc(-c3cnn(C)c3)c2)n1 (stereo not drawn) | Proline--tRNA ligase (Plasmodium falciparum, UniProt Q8I5R7) | enzyme activity, inhibitor, absorbance | – | – | 73.5
CC(C)C[C@@H]1NC(=O)[C@H](Cc2c[nH]cn2)NC(=O)[C@@H](C)NC(=O)[C@H](C(C)C)NC(=O)[C@H](C)NC(=O)[C@H](Cc2c[nH]c3ccccc23)NC(=O)[C@H](CCC(N)=O)NC(=O)[C@H](N)CSSC[C@@H](C(N)=O)NC1=O | GRPR | ligand displacement in cells, radioligand | – | – | 437
CN(Cc1nc2ccccc2s1)C(=O)c1cccc(S(=O)(=O)N2CCc3ccccc3C2)c1 | KCNA2/KCNA1 (Homo sapiens, UniProt P16389+Q09470) | potassium current, inhibitor, automated patch clamp | CHO-K1, concatemer expressing | – | 2710
